Results from different studies.
Parts stem from different laboratories: compare values within a part only.

Set 1 — method: protein binding microarray; molecule type: double-stranded DNA, one strand shown; sample: in vitro; concentration: not given; reference: not given; direction: higher = stronger binding
Target: Histone acetyltransferase KAT6A, winged helix 1, GST fusion (KAT6A, Homo sapiens, UniProt Q92794, residues 1-85)
Notes: 8-mer, flanks averaged, mean of 2 arrays, mostly near background
Target sequence (chain): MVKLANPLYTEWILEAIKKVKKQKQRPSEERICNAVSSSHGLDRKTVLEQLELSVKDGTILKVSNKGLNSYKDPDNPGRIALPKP
Oligonucleotide | E-score
AGTTCCTC | -0.0529
GTTCTTTA | -0.02
CCTACAAG | -0.248
GTCAGCCA | -0.15
CTACAGTC | -0.113
AACGGAGC | 0.0989
ACCACGGG | 0.275

Set 2 — method: universal PBM; molecule type: double-stranded DNA, one strand shown; sample: in vitro; concentration: 600 nM; direction: higher = stronger binding
Target: Sal-like protein 4, full length isoform A (SALL4, Homo sapiens, UniProt Q9UJQ4, residues 1-1053)
UniProt Q9UJQ4, sequence (whole entry, looked up): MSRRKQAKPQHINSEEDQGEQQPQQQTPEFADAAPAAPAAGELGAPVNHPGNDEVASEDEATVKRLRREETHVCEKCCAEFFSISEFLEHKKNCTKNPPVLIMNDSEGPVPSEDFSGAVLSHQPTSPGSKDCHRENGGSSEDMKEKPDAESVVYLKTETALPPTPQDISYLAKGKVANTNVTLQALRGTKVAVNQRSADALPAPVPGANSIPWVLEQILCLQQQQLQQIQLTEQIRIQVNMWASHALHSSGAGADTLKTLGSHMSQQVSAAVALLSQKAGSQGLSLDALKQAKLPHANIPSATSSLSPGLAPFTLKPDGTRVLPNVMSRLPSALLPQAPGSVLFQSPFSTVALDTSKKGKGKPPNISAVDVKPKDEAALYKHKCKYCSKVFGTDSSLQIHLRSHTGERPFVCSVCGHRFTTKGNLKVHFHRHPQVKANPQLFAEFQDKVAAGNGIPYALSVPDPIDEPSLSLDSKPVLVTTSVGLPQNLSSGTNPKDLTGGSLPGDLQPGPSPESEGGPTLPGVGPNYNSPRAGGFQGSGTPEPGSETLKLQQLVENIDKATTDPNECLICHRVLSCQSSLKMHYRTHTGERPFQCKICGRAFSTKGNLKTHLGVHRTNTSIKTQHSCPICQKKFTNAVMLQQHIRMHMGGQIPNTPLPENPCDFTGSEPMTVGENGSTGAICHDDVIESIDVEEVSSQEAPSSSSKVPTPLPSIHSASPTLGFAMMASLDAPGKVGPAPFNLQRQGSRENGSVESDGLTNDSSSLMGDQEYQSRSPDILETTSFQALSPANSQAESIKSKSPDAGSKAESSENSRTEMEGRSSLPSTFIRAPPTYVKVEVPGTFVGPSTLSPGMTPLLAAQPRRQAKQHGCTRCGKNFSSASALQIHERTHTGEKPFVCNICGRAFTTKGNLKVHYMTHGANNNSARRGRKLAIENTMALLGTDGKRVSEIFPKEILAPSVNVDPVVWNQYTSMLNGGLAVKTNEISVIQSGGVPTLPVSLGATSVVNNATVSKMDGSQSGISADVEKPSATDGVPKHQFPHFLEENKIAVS
Notes: 8-mer, flanks averaged, mean of replicates
Oligonucleotide | E-score
ATACTCTA | 0.195
ACCACGTG | -0.284
AACACGTA | 0.227
AGCTCCTG | -0.255
CGTTGCAA | -0.134
TCTGGAAA | 0.176

Set 3 — method: protein-binding microarray; molecule type: double-stranded DNA, one strand shown; sample: in vitro; concentration: 250 nM; notes: 60-bp whole probe; together with: salmon DNA 0.4 mg/ml; reference: random background probes; direction: higher = stronger binding
Target: Interferon regulatory factor 7, full length, phosphomimetic (IRF7, Homo sapiens, UniProt Q92985, residues 1-503, S101K/S471D/S472D/S475D/S476D/S477D/S483D/S484D/S487D)
UniProt Q92985, sequence (whole entry, unmodified, looked up): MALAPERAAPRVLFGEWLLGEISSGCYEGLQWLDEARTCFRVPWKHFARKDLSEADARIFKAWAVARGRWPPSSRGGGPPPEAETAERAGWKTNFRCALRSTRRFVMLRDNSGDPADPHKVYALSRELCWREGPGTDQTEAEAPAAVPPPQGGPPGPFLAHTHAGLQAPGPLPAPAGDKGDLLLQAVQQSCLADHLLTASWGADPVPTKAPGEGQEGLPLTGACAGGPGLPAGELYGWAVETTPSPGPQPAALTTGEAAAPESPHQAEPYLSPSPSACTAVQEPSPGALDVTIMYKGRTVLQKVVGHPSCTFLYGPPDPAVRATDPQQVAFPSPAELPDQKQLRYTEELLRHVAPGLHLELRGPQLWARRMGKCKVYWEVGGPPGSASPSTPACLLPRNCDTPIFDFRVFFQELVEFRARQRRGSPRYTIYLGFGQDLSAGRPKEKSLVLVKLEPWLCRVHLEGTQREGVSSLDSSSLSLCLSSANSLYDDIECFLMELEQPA
Constant ends, left off below: GCCTAGCAC … GTGCTAGGTCTTGATTCGCTTGACGCTGCTG
Oligonucleotide | log fluorescence [z-score]
TCAGTTTTCAGTCCTGGACT | 0.967
TCATTTTTTTTTTCATCATT | 1.05
GACGGTATCCTCATCCTGAC | 0.0547
CAGGGAATTCACCTGCTGAC | -0.479
GACGGTATCCTACTGCTGAG | 0.00891

Other studies, line by line
Substance | target | assay | test system | conditions | how to read | quantity | result
PhoQ, residues 284 288 289 292 302 303 AAQSYM | PhoP, residues 12 14 15 18 19 LHSVQ (Escherichia coli, UniProt P23836) | Sort-seq, measured: YFP reporter | E. coli | PhoQ-PhoP variant library, together with: 10 µM Mg2+ | reference: high Mg2+ state, higher = stronger signaling | fold induction | 14.7
